Measurements of several laboratories.
Every numbered part comes from another study and shows a few of its results, in no order.

Study 1
Target: Centromere-binding protein 1, full length, His-tagged (CBF1, Saccharomyces cerevisiae, UniProt P17106, residues 1-351)
Chain of UniProt P17106 (whole entry, looked up): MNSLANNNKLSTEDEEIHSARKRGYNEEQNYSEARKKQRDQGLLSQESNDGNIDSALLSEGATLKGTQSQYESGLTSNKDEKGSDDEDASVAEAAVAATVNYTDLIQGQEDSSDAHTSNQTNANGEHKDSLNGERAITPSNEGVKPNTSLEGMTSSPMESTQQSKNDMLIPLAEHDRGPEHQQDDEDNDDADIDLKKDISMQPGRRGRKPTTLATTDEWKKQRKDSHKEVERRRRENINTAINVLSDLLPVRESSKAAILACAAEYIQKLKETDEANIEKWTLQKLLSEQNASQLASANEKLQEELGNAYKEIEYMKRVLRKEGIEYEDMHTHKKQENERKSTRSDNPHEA
Technique: competition protein-binding microarray
Molecule type: double-stranded DNA, one strand shown
Matrix: in vitro
Concentration: 2 µM
Setting: whole 60-bp probe, lowest competitor level
Added: Pho4 competitor, 0.05 µM
Reading: higher = stronger binding
`AAATTACTAAGTTGTCAAGTGGGTGACGCCGTATGAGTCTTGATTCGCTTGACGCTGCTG` gave a fluorescence intensity of 72.3 a.u.
With `AAAGCGGTAATTTGCCACGTGGGTGCAGATATCTATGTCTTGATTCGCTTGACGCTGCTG` the fluorescence intensity was 1420 a.u.
With `GGCATACCTGTAAATCACCTGCTAACAAGGAATTCCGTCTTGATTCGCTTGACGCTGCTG` the fluorescence intensity was 268 a.u.
For `CATACCCAACCTTGTCACGTGACTTAAGATATTTGTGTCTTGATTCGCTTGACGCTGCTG`, the fluorescence intensity was 28500 a.u.
The fluorescence intensity of `GAATGGTAACCCTGTCACCTGTCTTTGGGAAGGTGGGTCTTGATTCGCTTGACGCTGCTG` is reported as 145 a.u.
`CTTCTGTAAATTTGCTCTGTGGGTGGACGCGCCCCGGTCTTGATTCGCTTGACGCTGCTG` has a fluorescence intensity of 78.3 a.u.
The fluorescence intensity of `TGCGCAACAACTTGGGGTGTGGGTGTATGTCTAGAAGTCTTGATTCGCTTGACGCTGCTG` is reported as 63.7 a.u.
For `TCTCTTCTTGGTACCGGCGTGATGGATTTGAAGCTAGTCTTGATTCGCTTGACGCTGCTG`, the fluorescence intensity was 105 a.u.
`AAGTTAATCGTCGAGACCGTGACGGATCTTAAGCGCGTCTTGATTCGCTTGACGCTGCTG` gave a fluorescence intensity of 77.5 a.u.

Study 2
Target: Histone acetyltransferase KAT6A, winged helix 1, GST fusion (KAT6A, Homo sapiens, UniProt Q92794, residues 1-85)
Technique: protein binding microarray
Molecule type: double-stranded DNA, one strand shown
Matrix: in vitro
Concentration: not given
Setting: 8-mer, flanks averaged, mean of 2 arrays, mostly near background
Reference: not given
Reading: higher = stronger binding
Residues (chain): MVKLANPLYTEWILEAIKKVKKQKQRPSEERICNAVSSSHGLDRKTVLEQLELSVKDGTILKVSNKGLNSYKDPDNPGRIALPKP
The E-score of `AGACGACA` is reported as -0.0499.
`CCCCGTCG` has an E-score of 0.395.
`AAACAGAT` gave an E-score of -0.12.
`CAGTCTAC` gave an E-score of 0.0734.
For `TCACCAGA`, the E-score was -0.0848.
`CAGCAGCC` gave an E-score of -0.208.
With `CTCTGTCA` the E-score was -0.114.

Study 3
Target: RNA binding protein fox-1 homolog 2, RRM domain, GST-SBP tag (RBFOX2, Homo sapiens, UniProt O43251-10, residues 100-194)
Technique: RNA Bind-n-Seq
Molecule type: RNA
Matrix: in vitro
Concentration: 365 nM
Setting: natural RNA segment, single round, ends assumed
Reference: no-protein control
Reading: higher = stronger binding
Target sequence (chain): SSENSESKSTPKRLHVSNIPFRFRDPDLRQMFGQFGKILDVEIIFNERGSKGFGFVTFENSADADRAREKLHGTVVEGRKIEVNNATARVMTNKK
`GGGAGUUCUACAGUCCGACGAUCAAACUACUAAACAUAAAUAGAUUUUCACUACCACAAAGAAUGAGAAUUAAUGACACUGAAGGAAUGAUGCAAAAACUUCCCAUGAUUCAUCACUGAAAAUAUGACUAAUAUGGAAUUCUCGGGUGCCAA`: “RBNS enrichment (R)” 0.527.
For `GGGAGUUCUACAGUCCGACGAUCAUGUGUGUCCCAAGGAAAUCCCUGUAAAUUUAACUCACCUACAAAAGGCUUUUUCCCCGCCUUUGGUUGUUAACGGCAUUCCUGAAAGCCACAUGUGUUUAUUCAUUGGGUGGAAUUCUCGGGUGCCAA`, “RBNS enrichment (R)” read 0.346.
For `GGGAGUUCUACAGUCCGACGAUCCGUCUUGGUGCCUUUUGUGUGACACGCCUUGCCGAUGGCUUGACAUGCGCAGAUGUGAGGGACACGCUCACCUUAGCCUUAAGGGGGUAGGAGUGAUGUUUUGGGGGAGGUGGAAUUCUCGGGUGCCAA`, “RBNS enrichment (R)” read 0.304.
`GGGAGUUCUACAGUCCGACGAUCCUAGGUUCUUACUGACUGCUUUCUCCAGCUGUUCACAGCAGAUGCUUGGAUUUUAUGCAGUAGGCUUUACUACAGUACAUGGCUAAUCUUCCCCAAACUAGCUCAUUAAAUGGAAUUCUCGGGUGCCAA` — result for “RBNS enrichment (R)”: 0.44.
For `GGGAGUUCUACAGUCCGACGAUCACUGUUGCCCUCUCUGUGUCUGCACACAUAAUGCCUCUCUCACUUUGGUGAAAUAUCAAAAAAAUGCAAGUACAGCAUGCAUAUUUAAGAAUUUCUGAACUAACACUUGAUGGAAUUCUCGGGUGCCAA`, “RBNS enrichment (R)” read 1.51.

Mixed results
With `PhoQ, residues 284 288 289 292 302 303 GNNTDL` the fold induction was 11.6 (PhoP, residues 12 14 15 18 19 YHFSH (Escherichia coli, UniProt P23836); Sort-seq, refers to: YFP reporter; E. coli; PhoQ-PhoP variant library, added: 10 µM Mg2+; reference: high Mg2+ state, higher = stronger signaling).

For quick reference, copied from above (study 3):
For `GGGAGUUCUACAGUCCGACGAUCAUGUGUGUCCCAAGGAAAUCCCUGUAAAUUUAACUCACCUACAAAAGGCUUUUUCCCCGCCUUUGGUUGUUAACGGCAUUCCUGAAAGCCACAUGUGUUUAUUCAUUGGGUGGAAUUCUCGGGUGCCAA`, “RBNS enrichment (R)” read 0.346.
